Measured values gathered from unrelated publications.
Protocols differ between the studies behind these lines.

| Compound | test | system | setting | measurement | value |
| --- | --- | --- | --- | --- | --- |
| O=C(Nc1nc2cccc(-c3ccc(CN4CCS(=O)(=O)CC4)cc3)n2n1)C1CC1 | – | rheumatoid arthritis patients | oral, 100 mg twice daily, 4 weeks, regardless of relatedness | patients with injection site hematoma | 0% |
| Cc1cc(NC2CCN(C(=O)OC3CCN(C(=O)/C=C/CN(C)C)C3)CC2)n2ncc(C(C)C)c2n1 (stereo not shown) | Phase I dose escalation CTCAE v4.0, item: Dyspnea | patients with advanced solid tumours | dose not given, TIW dosing any grade | patients with adverse event | 9% |
| C[C@@H](Nc1cc(F)cc(F)c1)c1cc(C(=O)N(C)C)cc2c(=O)cc(N3CCOCC3)oc12 | CTCAE v4, item: deep vein thrombosis | patients with advanced solid tumours | oral, dose not given, phase I dose finding | patients discontinuing for AE | 0% |
| CNC(=O)c1ccc(-c2cnc3ncc(Cc4ccc5ncccc5c4)n3n2)cc1F | item: Cough, all grades | cancer patients | oral, 600 mg twice daily, other expansion cohort, any causality | patients with adverse event | 11% |
| CNC(=O)c1cc(Oc2ccc(NC(=O)Nc3cc(C(C)(C)C)nn3-c3ccc4ncccc4c3)c(F)c2)ccn1 | – | patients | oral, dose not given, cycles 1 and 2, Medium AUC subgroup | patients with grade 3 musculoskeletal disorders | 29% |
| CCOc1c([C@H](C)n2nc(C)c3c(N)ncnc32)cc(Cl)c(F)c1[C@@H]1CNC(=O)C1 | ECG | previously treated B-cell malignancy patients | oral, 20 mg once daily, baseline below thresholds | patients with HR above 100 bpm | 0% |
| Cc1cc(-c2nnc(N)nc2-c2ccc(F)cc2)cc(Cl)n1 | item: Hyperthyroidism | IO-naive mCRPC patients, male | oral, dose not given, treatment-related, all grades | patients with immune-mediated AE | 0% |
| FC(F)(F)c1ccc(CNc2ccc(Cc3c[nH]c4ncc(Cl)cc34)cn2)cn1 | item: weight increased | adult patients with TGCT | oral, 1000 mg/day, grade 3 or higher | patients with treatment-related adverse event | 0% |
| COc1cc(Nc2ncc3c(n2)-c2ccc(Cl)cc2C(c2c(F)cccc2OC)=NC3)ccc1C(=O)O | item: acneiform rash, grade 1 | cancer patients, phase 1/2 | oral, dose not given, added: pembrolizumab | patients with adverse event | 8% |
| C[C@@H](c1ccc2nccn2c1)n1nnc2ncc(-c3cnn(C)c3)nc21 | item: Fatigue grade ≥3 | EGFR-mutant MET-altered NSCLC | oral, dose not given, study | patients with treatment-related AEs | 0% |

Excerpt of the above:
| Compound | test | system | setting | measurement | value |
| --- | --- | --- | --- | --- | --- |
| Cc1cc(-c2nnc(N)nc2-c2ccc(F)cc2)cc(Cl)n1 | item: Hyperthyroidism | IO-naive mCRPC patients, male | oral, dose not given, treatment-related, all grades | patients with immune-mediated AE | 0% |
